Published values pooled from the literature.
Parts stem from different laboratories: compare values within a part only.

Sample 1
Target: Prothrombin, mature alpha-thrombin (F2, Homo sapiens, UniProt P00734)
Method: aptamer microarray, sandwich
Molecule type: DNA with 2'F-ANA
Medium: in vitro
Tested at: 200 nM
Setting: whole 15-mer aptamer, many near background
Added: Cy3 exosite-II aptamer, 400 nM
Direction: higher = stronger binding
Measurement: mean fluorescence intensity
GGTTGGTGTGGTTGG (2'F-ANA at 2 3 4 7 8 9 10 13 15): 257 a.u.
GGTTGGTGTGGTTGG (2'F-ANA at 1 3 5 6 10 13 15): 54.6 a.u.
GGTTGGTGTGGTTGG (2'F-ANA at 2 3 5 13 15): 72.3 a.u.
GGTTGGTGTGGTTGG (2'F-ANA at 1 2 5 7 8 10 12 14 15): 52.1 a.u.

Sample 2
Target: Histone acetyltransferase KAT6A, both winged helices, GST fusion (KAT6A, Homo sapiens, UniProt Q92794, residues 1-181)
Method: protein binding microarray
Molecule type: double-stranded DNA, one strand shown
Medium: in vitro
Tested at: not given
Setting: 8-mer, flanks averaged, mean of 2 arrays, mostly near background
Baseline: not given
Direction: higher = stronger binding
Measurement: E-score
Construct (chain): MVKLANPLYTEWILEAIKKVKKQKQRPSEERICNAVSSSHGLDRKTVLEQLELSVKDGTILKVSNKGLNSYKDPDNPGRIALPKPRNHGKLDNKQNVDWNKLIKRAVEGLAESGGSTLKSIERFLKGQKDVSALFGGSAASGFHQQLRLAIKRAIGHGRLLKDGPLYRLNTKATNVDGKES
CACGTTAC: 0.00558
CAGTCATG: -0.0399
TGAGCCCA: -0.192
ACTAGGCC: -0.0386

Sample 3
Target: Sal-like protein 4, full length isoform A (SALL4, Homo sapiens, UniProt Q9UJQ4, residues 1-1053)
Chain of UniProt Q9UJQ4 (whole entry, looked up): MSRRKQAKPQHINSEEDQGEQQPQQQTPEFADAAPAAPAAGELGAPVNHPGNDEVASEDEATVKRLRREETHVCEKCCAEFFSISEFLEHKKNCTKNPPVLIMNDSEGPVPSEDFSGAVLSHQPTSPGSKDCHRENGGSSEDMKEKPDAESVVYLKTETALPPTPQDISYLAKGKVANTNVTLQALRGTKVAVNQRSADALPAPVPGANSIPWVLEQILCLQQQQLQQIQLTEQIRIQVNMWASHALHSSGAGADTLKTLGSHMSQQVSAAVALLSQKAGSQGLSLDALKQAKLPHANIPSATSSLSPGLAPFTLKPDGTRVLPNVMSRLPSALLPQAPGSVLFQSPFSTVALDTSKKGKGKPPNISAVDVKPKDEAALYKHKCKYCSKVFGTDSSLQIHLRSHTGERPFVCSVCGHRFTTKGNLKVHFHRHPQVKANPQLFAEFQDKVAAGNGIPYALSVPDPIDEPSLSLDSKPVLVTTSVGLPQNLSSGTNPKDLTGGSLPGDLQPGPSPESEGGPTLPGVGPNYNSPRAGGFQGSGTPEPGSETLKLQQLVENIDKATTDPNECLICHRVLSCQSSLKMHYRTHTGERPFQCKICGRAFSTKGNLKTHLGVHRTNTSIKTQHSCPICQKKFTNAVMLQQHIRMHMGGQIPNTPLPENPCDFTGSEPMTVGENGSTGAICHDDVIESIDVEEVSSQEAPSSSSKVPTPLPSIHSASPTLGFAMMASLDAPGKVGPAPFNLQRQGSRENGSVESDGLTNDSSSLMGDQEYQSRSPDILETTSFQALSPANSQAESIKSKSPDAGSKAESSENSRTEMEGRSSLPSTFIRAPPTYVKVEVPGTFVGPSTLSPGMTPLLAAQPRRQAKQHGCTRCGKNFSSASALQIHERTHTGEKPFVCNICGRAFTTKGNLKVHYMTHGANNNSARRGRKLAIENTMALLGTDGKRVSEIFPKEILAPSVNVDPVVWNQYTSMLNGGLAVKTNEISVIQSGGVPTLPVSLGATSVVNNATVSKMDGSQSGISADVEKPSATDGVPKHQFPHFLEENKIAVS
Method: universal PBM
Molecule type: double-stranded DNA, one strand shown
Medium: in vitro
Tested at: 600 nM
Setting: 8-mer, flanks averaged, mean of replicates
Direction: higher = stronger binding
Measurement: E-score
GATGGTGA: -0.037
TATGTGAA: 0.286
ATCAAACG: 0.136
AATGAATT: 0.333
CCTGCAGA: -0.0464

Further values, each from its own experiment
PhoQ, residues 284 288 289 292 302 303 NLGVHL — fold induction (PhoP, residues 12 14 15 18 19 VHSCL (Escherichia coli, UniProt P23836); Sort-seq, item: YFP reporter; E. coli; PhoQ-PhoP variant library, added: 10 µM Mg2+; baseline: high Mg2+ state, higher = stronger signaling): 0.0191
